Measurements pooled from the literature.
Each numbered part is a random draw from the data of one study; scales do not carry over between parts. “And” joins repeats or separate records; there may be more than shown.
UniProt P11802, sequence (whole entry, looked up): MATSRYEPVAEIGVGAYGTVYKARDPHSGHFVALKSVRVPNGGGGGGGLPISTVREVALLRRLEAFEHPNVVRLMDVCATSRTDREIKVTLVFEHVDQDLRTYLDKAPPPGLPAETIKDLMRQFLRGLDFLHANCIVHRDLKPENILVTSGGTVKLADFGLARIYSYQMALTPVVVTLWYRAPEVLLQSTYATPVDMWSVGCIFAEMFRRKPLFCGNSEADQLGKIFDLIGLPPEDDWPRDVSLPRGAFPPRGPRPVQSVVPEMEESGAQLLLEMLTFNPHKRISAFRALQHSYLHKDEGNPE
UniProt P07947, sequence (whole entry, looked up): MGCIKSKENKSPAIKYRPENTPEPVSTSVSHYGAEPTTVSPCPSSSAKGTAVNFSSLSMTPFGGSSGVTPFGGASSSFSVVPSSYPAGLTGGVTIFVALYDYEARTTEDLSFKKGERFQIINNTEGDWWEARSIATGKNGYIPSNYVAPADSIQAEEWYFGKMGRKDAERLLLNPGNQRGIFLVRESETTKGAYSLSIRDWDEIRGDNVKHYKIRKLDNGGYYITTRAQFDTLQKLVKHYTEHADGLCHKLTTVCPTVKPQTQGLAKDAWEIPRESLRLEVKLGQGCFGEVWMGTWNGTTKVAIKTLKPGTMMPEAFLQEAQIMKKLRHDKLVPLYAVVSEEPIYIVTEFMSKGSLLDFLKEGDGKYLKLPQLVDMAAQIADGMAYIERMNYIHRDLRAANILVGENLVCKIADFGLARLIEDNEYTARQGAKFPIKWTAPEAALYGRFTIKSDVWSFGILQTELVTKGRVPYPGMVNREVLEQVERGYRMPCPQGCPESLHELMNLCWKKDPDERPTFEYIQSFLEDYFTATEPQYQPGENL
UniProt P48730, sequence (whole entry, looked up): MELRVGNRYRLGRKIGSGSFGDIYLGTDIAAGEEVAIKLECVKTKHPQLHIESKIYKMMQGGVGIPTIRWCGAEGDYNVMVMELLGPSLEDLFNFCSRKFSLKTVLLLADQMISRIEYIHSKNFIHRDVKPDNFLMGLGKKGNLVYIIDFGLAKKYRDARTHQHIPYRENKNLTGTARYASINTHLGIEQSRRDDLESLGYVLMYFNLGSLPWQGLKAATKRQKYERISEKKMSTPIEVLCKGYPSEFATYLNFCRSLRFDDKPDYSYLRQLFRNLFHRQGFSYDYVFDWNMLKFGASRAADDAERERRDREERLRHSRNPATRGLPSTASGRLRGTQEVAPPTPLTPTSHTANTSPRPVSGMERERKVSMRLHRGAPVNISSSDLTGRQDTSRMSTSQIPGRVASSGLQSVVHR
UniProt Q8WU08, sequence (whole entry, looked up): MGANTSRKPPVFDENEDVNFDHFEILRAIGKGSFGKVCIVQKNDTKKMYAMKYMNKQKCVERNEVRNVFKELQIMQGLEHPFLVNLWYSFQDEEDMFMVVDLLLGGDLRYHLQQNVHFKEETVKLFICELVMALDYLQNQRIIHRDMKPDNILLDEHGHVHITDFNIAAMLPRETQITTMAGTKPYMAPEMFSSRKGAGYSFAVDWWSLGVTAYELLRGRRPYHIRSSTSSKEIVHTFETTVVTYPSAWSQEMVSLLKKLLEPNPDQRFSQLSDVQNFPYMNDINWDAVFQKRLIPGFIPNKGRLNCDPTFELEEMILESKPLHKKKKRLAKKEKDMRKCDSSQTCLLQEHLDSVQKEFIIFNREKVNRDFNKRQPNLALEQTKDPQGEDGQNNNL
UniProt Q15835, sequence (whole entry, looked up): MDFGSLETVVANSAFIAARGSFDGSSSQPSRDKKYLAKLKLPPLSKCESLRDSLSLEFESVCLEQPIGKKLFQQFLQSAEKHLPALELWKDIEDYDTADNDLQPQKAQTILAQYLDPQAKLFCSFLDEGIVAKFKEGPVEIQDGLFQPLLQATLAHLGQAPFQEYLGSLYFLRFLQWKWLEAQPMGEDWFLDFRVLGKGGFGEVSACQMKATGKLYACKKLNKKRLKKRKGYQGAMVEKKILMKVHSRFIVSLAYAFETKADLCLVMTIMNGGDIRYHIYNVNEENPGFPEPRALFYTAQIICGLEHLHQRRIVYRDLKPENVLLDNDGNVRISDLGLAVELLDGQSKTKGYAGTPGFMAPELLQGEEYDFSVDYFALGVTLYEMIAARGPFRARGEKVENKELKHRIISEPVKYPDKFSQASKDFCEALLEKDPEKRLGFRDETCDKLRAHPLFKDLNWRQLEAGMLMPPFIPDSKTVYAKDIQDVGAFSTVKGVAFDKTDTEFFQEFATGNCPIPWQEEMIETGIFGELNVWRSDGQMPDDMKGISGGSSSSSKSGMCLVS
UniProt P46734, sequence (whole entry, looked up): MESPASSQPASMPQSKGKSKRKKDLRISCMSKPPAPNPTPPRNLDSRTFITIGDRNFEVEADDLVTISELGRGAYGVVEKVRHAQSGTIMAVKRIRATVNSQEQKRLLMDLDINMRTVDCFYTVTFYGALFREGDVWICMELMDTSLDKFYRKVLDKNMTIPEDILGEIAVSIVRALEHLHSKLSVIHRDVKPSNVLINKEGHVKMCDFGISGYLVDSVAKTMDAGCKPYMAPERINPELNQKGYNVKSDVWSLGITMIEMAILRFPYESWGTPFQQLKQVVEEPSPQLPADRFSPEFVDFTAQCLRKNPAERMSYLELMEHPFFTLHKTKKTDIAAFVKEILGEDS
UniProt Q13153, sequence (whole entry, looked up): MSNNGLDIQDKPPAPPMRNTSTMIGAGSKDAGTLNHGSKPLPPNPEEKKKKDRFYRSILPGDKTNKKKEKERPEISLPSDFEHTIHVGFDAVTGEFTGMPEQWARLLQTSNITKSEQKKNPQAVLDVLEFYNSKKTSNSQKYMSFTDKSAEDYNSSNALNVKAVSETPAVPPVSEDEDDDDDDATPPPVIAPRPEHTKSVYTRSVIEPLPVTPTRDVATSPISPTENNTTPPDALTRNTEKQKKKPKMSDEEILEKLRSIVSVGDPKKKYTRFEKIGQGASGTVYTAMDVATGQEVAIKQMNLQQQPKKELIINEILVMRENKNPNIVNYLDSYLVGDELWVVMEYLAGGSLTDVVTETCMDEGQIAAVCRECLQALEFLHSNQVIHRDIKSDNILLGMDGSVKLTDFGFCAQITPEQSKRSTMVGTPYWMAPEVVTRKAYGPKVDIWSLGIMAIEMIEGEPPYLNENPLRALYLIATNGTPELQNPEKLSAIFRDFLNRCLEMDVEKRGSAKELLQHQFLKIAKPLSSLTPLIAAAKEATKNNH
UniProt P30291, sequence (whole entry, looked up): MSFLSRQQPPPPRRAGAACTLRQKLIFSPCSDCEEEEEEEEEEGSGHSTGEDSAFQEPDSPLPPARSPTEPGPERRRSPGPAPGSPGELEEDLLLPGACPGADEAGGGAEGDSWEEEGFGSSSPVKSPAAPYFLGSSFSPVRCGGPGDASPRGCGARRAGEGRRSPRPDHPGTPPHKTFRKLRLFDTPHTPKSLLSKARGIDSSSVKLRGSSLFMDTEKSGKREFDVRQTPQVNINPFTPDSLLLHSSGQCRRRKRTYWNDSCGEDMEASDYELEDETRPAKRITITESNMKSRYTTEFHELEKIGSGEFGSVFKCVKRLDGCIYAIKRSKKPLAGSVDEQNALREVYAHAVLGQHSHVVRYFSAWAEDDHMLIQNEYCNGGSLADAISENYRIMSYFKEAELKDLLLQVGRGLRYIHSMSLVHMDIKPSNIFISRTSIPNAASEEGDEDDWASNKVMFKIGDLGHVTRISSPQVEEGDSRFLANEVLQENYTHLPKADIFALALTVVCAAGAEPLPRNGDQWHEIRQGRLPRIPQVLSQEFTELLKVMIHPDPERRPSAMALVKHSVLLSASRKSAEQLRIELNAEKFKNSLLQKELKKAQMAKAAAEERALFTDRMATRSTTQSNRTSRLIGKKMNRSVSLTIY
UniProt Q8N5S9, sequence (whole entry, looked up): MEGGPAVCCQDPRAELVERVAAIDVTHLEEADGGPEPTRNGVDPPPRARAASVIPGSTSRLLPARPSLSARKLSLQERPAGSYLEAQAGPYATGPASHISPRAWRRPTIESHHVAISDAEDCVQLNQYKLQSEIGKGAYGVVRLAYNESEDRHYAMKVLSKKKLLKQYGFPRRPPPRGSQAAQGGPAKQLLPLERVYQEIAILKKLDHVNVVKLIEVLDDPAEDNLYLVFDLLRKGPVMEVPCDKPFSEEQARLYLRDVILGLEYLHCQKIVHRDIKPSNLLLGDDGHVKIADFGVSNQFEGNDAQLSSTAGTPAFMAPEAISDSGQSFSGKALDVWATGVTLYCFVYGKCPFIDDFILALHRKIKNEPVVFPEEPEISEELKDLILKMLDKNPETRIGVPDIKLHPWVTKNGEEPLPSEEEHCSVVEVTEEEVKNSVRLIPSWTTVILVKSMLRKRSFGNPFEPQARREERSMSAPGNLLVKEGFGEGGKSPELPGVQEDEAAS

Sample 1
Cell line: mouse MPNST tumor cells
Method: high-content immunofluorescence imaging
Measured: nuclear SOX9
Concentration: 10 µM
Time: 12 h
Setting: mean of 2 replicates
Baseline: DMSO control
Reading: higher = more nuclear SOX9
| Structure (SMILES) | nuclear SOX9 intensity |
| --- | --- |
| C[C@H](N)COC(=O)[C@H](CCCCN)NC(=O)Cc1c(-c2ccc3ccccc3c2)[nH]c2c1ccc1ccccc12 | 97.4 % of DMSO |
| CN1CCN(c2ncc(-c3cc(Cl)cc(Cl)c3Cl)c(N)n2)CC1 | 169 % of DMSO |
| CCCOc1ccc2[nH]c(NC(=O)OC)nc2c1 | 146 % of DMSO |
| CN1CCN(c2ccc(/C=C(\C#N)c3ccccc3Br)cc2)CC1 | 128 % of DMSO |
| O=c1onc2cnc3ccccc3n12 | 92.9 % of DMSO |
| NS(=O)(=O)c1c(Cl)ccc(NC(=O)Nc2cccc(Cl)c2Cl)c1O | 91.2 % of DMSO |
| O=C(Nc1cc(C(F)(F)F)cc(C(F)(F)F)c1)Nc1c(Br)cc(Br)cc1-c1nn[nH]n1 | 106 % of DMSO |
| CC1NC(=O)NC1=O (stereo not shown) | 90.6 % of DMSO and 103 % of DMSO |

Sample 2
Target: panel of 300 human kinases
Concentration: 0.5 µM
Reading: higher = more selective
| Compound | Gini score |
| --- | --- |
| O=c1cc(N2CCOCC2)oc2c(-c3ccccc3)cccc12 | 0.68 |
| O=C(c1cc2cc(O)ccc2[nH]1)c1cc2cc(O)ccc2[nH]1 | 0.62 |
| C[S+]([O-])c1ccc(-c2nc(-c3ccncc3)c(-c3ccc(F)cc3)[nH]2)cc1 (stereo not shown) | 0.74 |
| O=c1cc(N2CCOCC2)oc2c1ccc1ccccc12 | 0.73 |
| O=C1NC(=O)c2c1c1c3ccccc3[nH]c1c1[nH]c3cc(Br)ccc3c21 | 0.57 |
| NC(=O)Nc1sc(-c2ccc(F)cc2)cc1C(N)=O | 0.58 |
| Cc1nc(Nc2ncc(C(=O)Nc3c(C)cccc3Cl)s2)cc(N2CCN(CCO)CC2)n1 | 0.74 |
| O=C1Nc2ccccc2/C1=C\c1c(Cl)[nH]c2ccccc12 | 0.61 |
| O=C1Nc2ccc(Br)cc2/C1=C/c1cc2c([nH]1)CCCC2 | 0.59 |
| Nc1ncnc2c1c(-c1ccc(Oc3ccccc3)cc1)cn2C1CCCC1 | 0.75 |
| CS(=O)(=O)CCNCc1ccc(-c2ccc3ncnc(Nc4ccc(OCc5cccc(F)c5)c(Cl)c4)c3c2)o1 | 0.77 |
| COc1ccc2c(c1)c(C1=C(c3c[nH]c4ccccc34)C(=O)NC1=O)cn2CCCN(C)C | 0.59 |
| N#Cc1cnc2cnc(NCc3cccnc3)cc2c1Nc1ccc(F)c(Cl)c1 | 0.61 |

Sample 3
Target: Calcium/calmodulin-dependent protein kinase type II subunit alpha (CAMK2A, Homo sapiens, UniProt Q9UQM7)
UniProt Q9UQM7, sequence (whole entry, looked up): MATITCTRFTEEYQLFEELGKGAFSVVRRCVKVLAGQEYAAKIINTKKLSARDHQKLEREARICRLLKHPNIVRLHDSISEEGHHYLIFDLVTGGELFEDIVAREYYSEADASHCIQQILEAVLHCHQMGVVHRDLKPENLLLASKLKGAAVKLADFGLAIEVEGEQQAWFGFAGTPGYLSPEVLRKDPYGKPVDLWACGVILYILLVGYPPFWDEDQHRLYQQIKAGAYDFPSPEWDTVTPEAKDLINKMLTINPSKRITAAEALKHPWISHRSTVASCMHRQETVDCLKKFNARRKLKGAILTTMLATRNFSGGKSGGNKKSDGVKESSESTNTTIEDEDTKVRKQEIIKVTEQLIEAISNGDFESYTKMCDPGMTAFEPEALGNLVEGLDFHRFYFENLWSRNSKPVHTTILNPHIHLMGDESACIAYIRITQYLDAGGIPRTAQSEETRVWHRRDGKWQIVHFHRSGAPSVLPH
Read-out: enzyme activity
Mode: inhibitor
Concentration: 10 µM
| Structure (SMILES) | inhibition [%] |
| --- | --- |
| COc1ccc2cc3[n+](cc2c1OC)CCc1cc(O)c(O)cc1-3 | -14 |
| Cc1cc(=O)n(-c2ccccc2)n1C | -8 |
| CO[C@H]1/C=C/O[C@@]2(C)Oc3c(C)c(O)c4c(O)c(c(/C=N/N5CCN(C6CCCC6)CC5)c(O)c4c3C2=O)NC(=O)/C(C)=C\C=C\[C@H](C)[C@H](O)[C@@H](C)[C@@H](O)[C@@H](C)[C@H](OC(C)=O)[C@@H]1C | -10 |
| C=CCSSSCC=C | -17 |
| CS(=O)(=O)c1cccc(C[C@H](NC(=O)c2c(Cl)cc3c(c2Cl)CCN(C(=O)c2ccc4ccoc4c2)C3)C(=O)O)c1 | 4 |
| COc1cc2c(=O)c(-c3ccc(O)cc3)coc2cc1O[C@@H]1O[C@H](CO)[C@@H](O)[C@H](O)[C@H]1O | -6 |
| CCN(CC)CCNc1ccc(C)c2sc3ccccc3c(=O)c12 | -6 |
| CCC(O)CC | -8 |
| COc1ccc([C@@H]2CC(=O)c3c(O)cc(O[C@@H]4O[C@H](CO[C@@H]5O[C@@H](C)[C@H](O)[C@@H](O)[C@H]5O)[C@@H](O)[C@H](O)[C@H]4O)cc3O2)cc1O | 6 |
| OC[C@H]1NC[C@H](O)[C@@H](O)[C@H]1O | -1 |
| O=C(O[C@@H]1C[C@@H]2C[C@H]3C[C@H](C1)N2CC3=O)c1c[nH]c2ccccc12 | -8 |
| C[n+]1ccccc1/C=N/O | -7 |

Sample 4
Structure (SMILES): CCS(=O)(=O)c1cc2cc(C[C@@](O)(CC(C)(C)c3ccc(F)cc3C(N)=O)C(F)(F)F)[nH]c2cn1
Read-out: cell-free assay
Method: competition with immobilised ligand
Concentration: 1 µM
| target | remaining binding |
| --- | --- |
| CSNK1D (Homo sapiens, UniProt P48730) | 100% |
| EGFR (Homo sapiens, UniProt P00533, del752-759) | 100% |
| YES1 (Homo sapiens, UniProt P07947) | 100% |
| PAK1 (Homo sapiens, UniProt Q13153) | 100% |
| STK32A (Homo sapiens, UniProt Q8WU08) | 77% |
| WEE1 (Homo sapiens, UniProt P30291) | 100% |
| MAP3K7 (Homo sapiens, UniProt O43318) | 92% |
| MARK1 (Homo sapiens, UniProt Q9P0L2) | 100% |
| PRKAA1 (Homo sapiens, UniProt Q13131) | 100% |
| Cyclin-dependent kinase 4, with cyclin D3 (CDK4, Homo sapiens, UniProt P11802) | 100% |
| GRK1 (Homo sapiens, UniProt Q15835) | 100% |
| CAMKK1 (Homo sapiens, UniProt Q8N5S9) | 87% |
| MAP3K5 (Homo sapiens, UniProt Q99683) | 100% |
| TLK2 (Homo sapiens, UniProt Q86UE8) | 97% |
| MAP2K3 (Homo sapiens, UniProt P46734) | 67% |
| NEK1 (Homo sapiens, UniProt Q96PY6) | 53% |
